Published values pooled from the literature.
Numbered parts are unrelated; each lists some results of a single study.

Sample 1
Target: Histone acetyltransferase KAT6A, both winged helices, GST fusion (KAT6A, Homo sapiens, UniProt Q92794, residues 1-181)
Technique: protein binding microarray
Molecule type: double-stranded DNA, one strand shown
Matrix: in vitro
Concentration: not given
Setting: 8-mer, flanks averaged, mean of 2 arrays, mostly near background
Reference: not given
Reading: higher = stronger binding
Endpoint: E-score
Target sequence (chain): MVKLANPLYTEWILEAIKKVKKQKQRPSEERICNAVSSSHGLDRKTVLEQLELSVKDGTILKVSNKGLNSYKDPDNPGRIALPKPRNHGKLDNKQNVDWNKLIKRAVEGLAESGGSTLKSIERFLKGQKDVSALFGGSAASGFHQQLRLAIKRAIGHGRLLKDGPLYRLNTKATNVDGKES
CGAACACA: 0.0736
CGAAAACC: 0.0998
CGCAGTTC: 0.209
GTGGTGAA: 0.0243
AATCCATA: -0.0788
ACAGCCTA: -0.15
GAGTACTC: -0.0526

Sample 2
Target: PABPC1L2, full length, GST fusion (mouse, UniProt A0ABA7IW68)
Technique: RNAcompete
Molecule type: RNA
Matrix: in vitro
Concentration: 20 nM
Setting: 7-mer, probes averaged, single round
Reference: mean of 7-mers
Reading: higher = stronger binding
Endpoint: 7-mer Z-score
CUUACUC: -0.237
CUCUUAC: -0.389
CGAGAUU: -0.0464
CUGGAGC: -0.0192
GCAUUGC: -0.179
UGUGCUC: -0.362

Sample 3
Target: Sal-like protein 4, full length isoform B (SALL4, Homo sapiens, UniProt Q9UJQ4-2, residues 1-616)
Technique: universal PBM
Molecule type: double-stranded DNA, one strand shown
Matrix: in vitro
Concentration: not given
Setting: 8-mer, flanks averaged, mean of replicates
Reading: higher = stronger binding
Endpoint: E-score
Residues (chain): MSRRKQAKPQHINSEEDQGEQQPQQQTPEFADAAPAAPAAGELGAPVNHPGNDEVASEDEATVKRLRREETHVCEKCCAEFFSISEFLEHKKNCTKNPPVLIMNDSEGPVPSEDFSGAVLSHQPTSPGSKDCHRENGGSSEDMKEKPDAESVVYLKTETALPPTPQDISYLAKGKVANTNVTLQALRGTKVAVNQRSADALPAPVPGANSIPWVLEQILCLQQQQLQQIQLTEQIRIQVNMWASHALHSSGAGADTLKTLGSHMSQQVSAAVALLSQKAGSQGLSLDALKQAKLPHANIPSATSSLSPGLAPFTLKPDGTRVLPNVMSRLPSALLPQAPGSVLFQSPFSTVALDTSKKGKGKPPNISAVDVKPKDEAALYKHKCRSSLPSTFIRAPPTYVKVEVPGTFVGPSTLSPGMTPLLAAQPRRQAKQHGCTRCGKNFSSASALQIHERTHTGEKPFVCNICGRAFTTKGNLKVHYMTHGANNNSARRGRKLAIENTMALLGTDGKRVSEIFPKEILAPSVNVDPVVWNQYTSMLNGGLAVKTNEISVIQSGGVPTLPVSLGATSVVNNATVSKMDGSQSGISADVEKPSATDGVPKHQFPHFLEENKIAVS
CGACCGTC: -0.287
CGCACTCA: -0.127
ATGAAGCA: 0.0954
TCGCTCCA: 0.0157

Other studies, line by line
PhoQ, residues 284 288 289 292 302 303 TTSMTC  fold induction (PhoP, residues 12 14 15 18 19 SQCLL (Escherichia coli, UniProt P23836); Sort-seq, item: YFP reporter; E. coli; PhoQ-PhoP variant library, added: 10 µM Mg2+; reference: high Mg2+ state, higher = stronger signaling): 14.5

For quick reference, copied from above (sample 3):
CGACCGTC: -0.287
CGCACTCA: -0.127
ATGAAGCA: 0.0954
